Measured values gathered from unrelated publications.
Lines come from different studies, so protocols differ. ± marks the error that the study gave.
USP13 ZnF-UBD domain: Ubiquitin carboxyl-terminal hydrolase 13, ZnF-UBD domain (USP13, Homo sapiens, UniProt Q92995)
UniProt Q92995, sequence (whole entry, looked up): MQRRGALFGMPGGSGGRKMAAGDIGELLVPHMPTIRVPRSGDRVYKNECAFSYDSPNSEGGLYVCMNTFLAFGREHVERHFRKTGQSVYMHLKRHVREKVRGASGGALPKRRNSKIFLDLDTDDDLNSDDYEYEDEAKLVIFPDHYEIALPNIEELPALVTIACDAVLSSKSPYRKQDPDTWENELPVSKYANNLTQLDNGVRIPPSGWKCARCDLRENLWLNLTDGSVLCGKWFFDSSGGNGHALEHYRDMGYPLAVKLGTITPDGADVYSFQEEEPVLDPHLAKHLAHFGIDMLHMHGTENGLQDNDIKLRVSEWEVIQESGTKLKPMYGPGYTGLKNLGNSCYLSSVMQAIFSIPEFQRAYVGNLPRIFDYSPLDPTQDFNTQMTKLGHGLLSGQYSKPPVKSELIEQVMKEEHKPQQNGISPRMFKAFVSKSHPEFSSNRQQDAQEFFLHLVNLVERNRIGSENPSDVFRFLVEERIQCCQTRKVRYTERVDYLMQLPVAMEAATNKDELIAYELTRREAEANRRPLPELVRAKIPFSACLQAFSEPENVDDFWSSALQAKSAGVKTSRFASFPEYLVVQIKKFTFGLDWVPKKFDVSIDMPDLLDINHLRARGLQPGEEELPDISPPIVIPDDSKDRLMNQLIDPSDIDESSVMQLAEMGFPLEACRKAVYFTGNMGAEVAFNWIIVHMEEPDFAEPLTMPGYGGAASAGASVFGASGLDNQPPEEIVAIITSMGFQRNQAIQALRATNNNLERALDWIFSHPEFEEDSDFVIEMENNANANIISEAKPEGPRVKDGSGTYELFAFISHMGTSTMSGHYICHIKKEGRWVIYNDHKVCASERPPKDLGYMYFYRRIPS

CN(C)[C@@H]1CCN(C2=NC(=O)/C(=C\c3ccccc3O)S2)C1  EC50 (NG108-15; intracellular chloride reduction, Clomeleon fluorescence; 5 h): 1130 nM
CC1CC(c2ccccc2)n2nc(N)nc2N1 (stereo not shown)  EC50 (MEF with TRE-FLAG-LMNB1; LMNB1 reduction, high-content screening): > 250000 nM
CN1CCN(C2=NC(=O)/C(=C/c3ccccc3O)S2)CC1  EC50 (NG108-15; intracellular chloride reduction, Clomeleon fluorescence; 5 h): 1570 nM
CCn1cc(-c2cc(Cn3ccnc3)cc3c2CCN([C@H](c2cc(OC)ccn2)C2CC2)C3=O)c(C(F)(F)F)n1  EC50 (KP-4; cell growth, inhibitor; 120 h): 300 nM
c1cc(N2CCCC2)ccc1-c1cc2ncc(OCC3CCNCC3)nc2cc1-c1ccc(N2CCCC2)cc1  EC50 (Kasumi-1; cell growth, XTT; 7 days): 8500 ± 320 nM
COc1cccc(C2CC(c3ccccc3OC)n3nc(N)nc3N2)c1 (stereo not shown)  EC50 (MEF with TRE-FLAG-LMNB1; LMNB1 reduction, high-content screening): > 250000 nM
O=C(O)CCc1ccccc1OCc1ccccn1  Kd (USP13 ZnF-UBD domain): 365 µM
O=C1N=C(N2CCCCN2)S/C1=C\c1cc(F)ccc1O  EC50 (NG108-15; intracellular chloride reduction, Clomeleon fluorescence; 5 h): 318 nM
Nc1nc2n(n1)C(c1ccccc1)CC(c1ccccc1)N2 (stereo not shown)  EC50 (MEF with TRE-FLAG-LMNB1; LMNB1 reduction, high-content screening): > 200000 nM
Fc1ccc(Oc2ccc(Nc3ccc4ncc(OCC5CCNCC5)nc4c3)cc2)cc1  EC50 (Kasumi-1; cell growth, XTT; 7 days): 920 ± 10 nM
C[C@]1(c2nc3c(C(N)=O)cccc3[nH]2)CCCN1  EC50 (CAPAN-1 (BRCA2-deficient); cell proliferation, CellTiter-Glo; 168 h): 9400 nM
O=C(O)CNC(=O)c1ccc(S(=O)(=O)N2CCC(n3c(=O)oc4ccccc43)CC2)cc1  Kd (USP13 ZnF-UBD domain): > 1000 µM
CCCN(c1ccc(OC)cc1)S(=O)(=O)C1CC2OC1C(c1ccc(O)cc1)=C2c1ccc(O)cc1 (stereo not shown)  EC50 (MCF7 3xERE-luc, steroid-deprived; ERE luciferase reporter, agonist): 316 nM
CCOc1ccccc1C1CC(c2ccccc2)Nc2nc(N)nn21 (stereo not shown)  EC50 (MEF with TRE-FLAG-LMNB1; LMNB1 reduction, high-content screening): 162000 nM
O=C1N=C(N2CCCC2)S/C1=C\c1ccccc1O  EC50 (NG108-15; intracellular chloride reduction, Clomeleon fluorescence; 5 h): 2800 nM
N#Cc1[nH]nnc1-c1cccc(-c2cc(F)cc(C(F)(F)F)c2)c1  EC50 (CHO cells expressing NaCT; TCA cycle acceleration, activator, [14C]citric acid metabolism): 340 nM
C[C@]12CCCN1CC1=NNC(=O)c3cc(F)cc4[nH]c2c1c34  EC50 (WiDr colorectal cancer cells; cell viability; concentration not given, together with: with temozolomide): > 3000 nM
COc1ccccc1NC(=S)N[C@@H](NC(=O)c1cccc(Br)c1)C(Cl)(Cl)Cl  EC50 (MEF with TRE-FLAG-LMNB1; LMNB1 reduction, high-content screening): > 250000 nM
C[C@H]1CNCCN1c1nccc(-c2noc3c2CCC[C@@]32CCCc3sc(N)c(C#N)c32)n1  EC50 (Ba/F3, IL3-dependent; cell proliferation; 72 h, together with: IL3): 3440 nM
c1cc(N2CCCCC2)ccc1Nc1cc2ncc(OCC3CCNCC3)nc2cc1-c1ccc(N2CCCCC2)cc1  EC50 (Kasumi-1; cell growth, XTT; 7 days): 3400 ± 70 nM
Cn1cc(-c2ccc(-c3cncc(Cl)c3N3CCC4(CCNC4=O)CC3)cc2)cn1  log2 fold change (COLO 205; gene expression, microarray, measured: GLS mRNA; concentration not given, 2 h; relative to: untreated cells): 2.03
CCn1cc(-c2cc(Cn3ccoc3=N)cc3c2CCN([C@@H](C)c2cc(OC)ccn2)C3=O)c(C(F)(F)F)n1  EC50 (SW1271; cell growth, inhibitor; 120 h): > 30000 nM
O=C1N=C(N2CCOCC2)S/C1=C\c1ccccc1O  EC50 (NG108-15; intracellular chloride reduction, Clomeleon fluorescence; 5 h): 3600 nM
C[C@]12CC[C@@H]3c4ccc(O)cc4C[C@@H](CCCCCCCCC[S+]([O-])CCCC(F)(F)C(F)(F)F)[C@H]3[C@@H]1CC[C@@H]2O (stereo partly shown)  EC50 (MCF7 3xERE-luc, steroid-deprived; ERE luciferase reporter, agonist): 0.0794 nM
COc1cnc2cccc(N3CCc4c(cc(Cn5ccnc5C)cc4-c4cn(C)nc4C(F)(F)F)C3=O)c2c1  EC50 (RERF-LC-AI; cell growth, inhibitor; 120 h): > 30000 nM

Some of these lines once more:
O=C1N=C(N2CCCCN2)S/C1=C\c1cc(F)ccc1O  EC50 (NG108-15; intracellular chloride reduction, Clomeleon fluorescence; 5 h): 318 nM
Nc1nc2n(n1)C(c1ccccc1)CC(c1ccccc1)N2 (stereo not shown)  EC50 (MEF with TRE-FLAG-LMNB1; LMNB1 reduction, high-content screening): > 200000 nM
Fc1ccc(Oc2ccc(Nc3ccc4ncc(OCC5CCNCC5)nc4c3)cc2)cc1  EC50 (Kasumi-1; cell growth, XTT; 7 days): 920 ± 10 nM
C[C@]1(c2nc3c(C(N)=O)cccc3[nH]2)CCCN1  EC50 (CAPAN-1 (BRCA2-deficient); cell proliferation, CellTiter-Glo; 168 h): 9400 nM
